Published values pooled from the literature.
Numbered parts are unrelated; each lists some results of a single study.
UniProt Q9BUB5, sequence (whole entry, looked up): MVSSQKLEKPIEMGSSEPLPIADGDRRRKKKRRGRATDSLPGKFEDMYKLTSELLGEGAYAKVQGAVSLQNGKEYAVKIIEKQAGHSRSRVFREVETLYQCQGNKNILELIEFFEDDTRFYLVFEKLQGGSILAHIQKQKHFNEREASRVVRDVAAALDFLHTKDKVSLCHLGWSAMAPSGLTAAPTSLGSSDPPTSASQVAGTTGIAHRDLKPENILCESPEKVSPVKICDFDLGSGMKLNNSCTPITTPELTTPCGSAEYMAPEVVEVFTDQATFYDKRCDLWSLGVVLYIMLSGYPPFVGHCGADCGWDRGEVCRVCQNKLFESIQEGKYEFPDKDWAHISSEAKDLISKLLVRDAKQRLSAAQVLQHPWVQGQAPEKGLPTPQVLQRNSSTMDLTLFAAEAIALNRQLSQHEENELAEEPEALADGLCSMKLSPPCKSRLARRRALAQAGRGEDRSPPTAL
UniProt O00750, sequence (whole entry, looked up): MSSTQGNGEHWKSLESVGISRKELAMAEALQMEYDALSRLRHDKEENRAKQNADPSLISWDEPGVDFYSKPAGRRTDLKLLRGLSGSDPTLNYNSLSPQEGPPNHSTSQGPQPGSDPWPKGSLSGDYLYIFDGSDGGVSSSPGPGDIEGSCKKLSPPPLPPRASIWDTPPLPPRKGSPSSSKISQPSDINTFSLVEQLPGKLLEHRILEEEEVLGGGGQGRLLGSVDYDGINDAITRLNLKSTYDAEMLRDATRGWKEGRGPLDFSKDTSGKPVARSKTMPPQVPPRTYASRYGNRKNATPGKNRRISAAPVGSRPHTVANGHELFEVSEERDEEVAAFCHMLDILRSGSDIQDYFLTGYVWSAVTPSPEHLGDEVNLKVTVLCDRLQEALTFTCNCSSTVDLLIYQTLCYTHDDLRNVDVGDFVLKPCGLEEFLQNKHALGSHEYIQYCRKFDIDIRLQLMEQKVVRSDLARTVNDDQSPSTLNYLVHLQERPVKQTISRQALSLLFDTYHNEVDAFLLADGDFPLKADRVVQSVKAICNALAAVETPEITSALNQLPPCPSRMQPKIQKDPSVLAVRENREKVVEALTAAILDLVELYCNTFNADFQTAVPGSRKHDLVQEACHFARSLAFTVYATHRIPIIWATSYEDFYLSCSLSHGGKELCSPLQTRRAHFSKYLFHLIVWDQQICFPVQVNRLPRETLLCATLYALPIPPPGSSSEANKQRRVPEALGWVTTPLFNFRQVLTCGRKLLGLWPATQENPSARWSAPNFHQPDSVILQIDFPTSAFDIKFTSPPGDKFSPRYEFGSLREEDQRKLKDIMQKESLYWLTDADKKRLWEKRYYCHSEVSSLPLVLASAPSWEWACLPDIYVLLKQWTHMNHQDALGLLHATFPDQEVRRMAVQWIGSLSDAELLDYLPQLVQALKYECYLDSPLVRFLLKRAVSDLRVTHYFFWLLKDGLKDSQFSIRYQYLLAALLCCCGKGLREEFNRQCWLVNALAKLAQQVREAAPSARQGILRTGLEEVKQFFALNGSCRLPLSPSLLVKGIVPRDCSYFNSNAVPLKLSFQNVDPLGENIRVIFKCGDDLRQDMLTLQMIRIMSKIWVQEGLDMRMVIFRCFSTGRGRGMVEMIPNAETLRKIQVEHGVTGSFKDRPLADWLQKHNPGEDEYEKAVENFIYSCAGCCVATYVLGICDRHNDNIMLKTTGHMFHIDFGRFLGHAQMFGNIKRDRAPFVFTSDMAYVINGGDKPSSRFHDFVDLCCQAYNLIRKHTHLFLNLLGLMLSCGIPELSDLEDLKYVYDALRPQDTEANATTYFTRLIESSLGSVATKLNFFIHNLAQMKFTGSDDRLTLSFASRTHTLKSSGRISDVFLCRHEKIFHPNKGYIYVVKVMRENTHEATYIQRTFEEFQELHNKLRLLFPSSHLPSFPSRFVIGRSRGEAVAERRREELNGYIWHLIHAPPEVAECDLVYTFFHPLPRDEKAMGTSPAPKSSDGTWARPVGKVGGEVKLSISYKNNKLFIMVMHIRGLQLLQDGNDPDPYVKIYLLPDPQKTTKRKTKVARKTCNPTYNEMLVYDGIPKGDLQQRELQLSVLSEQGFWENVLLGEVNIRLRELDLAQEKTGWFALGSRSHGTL
UniProt Q15303, sequence (whole entry, looked up): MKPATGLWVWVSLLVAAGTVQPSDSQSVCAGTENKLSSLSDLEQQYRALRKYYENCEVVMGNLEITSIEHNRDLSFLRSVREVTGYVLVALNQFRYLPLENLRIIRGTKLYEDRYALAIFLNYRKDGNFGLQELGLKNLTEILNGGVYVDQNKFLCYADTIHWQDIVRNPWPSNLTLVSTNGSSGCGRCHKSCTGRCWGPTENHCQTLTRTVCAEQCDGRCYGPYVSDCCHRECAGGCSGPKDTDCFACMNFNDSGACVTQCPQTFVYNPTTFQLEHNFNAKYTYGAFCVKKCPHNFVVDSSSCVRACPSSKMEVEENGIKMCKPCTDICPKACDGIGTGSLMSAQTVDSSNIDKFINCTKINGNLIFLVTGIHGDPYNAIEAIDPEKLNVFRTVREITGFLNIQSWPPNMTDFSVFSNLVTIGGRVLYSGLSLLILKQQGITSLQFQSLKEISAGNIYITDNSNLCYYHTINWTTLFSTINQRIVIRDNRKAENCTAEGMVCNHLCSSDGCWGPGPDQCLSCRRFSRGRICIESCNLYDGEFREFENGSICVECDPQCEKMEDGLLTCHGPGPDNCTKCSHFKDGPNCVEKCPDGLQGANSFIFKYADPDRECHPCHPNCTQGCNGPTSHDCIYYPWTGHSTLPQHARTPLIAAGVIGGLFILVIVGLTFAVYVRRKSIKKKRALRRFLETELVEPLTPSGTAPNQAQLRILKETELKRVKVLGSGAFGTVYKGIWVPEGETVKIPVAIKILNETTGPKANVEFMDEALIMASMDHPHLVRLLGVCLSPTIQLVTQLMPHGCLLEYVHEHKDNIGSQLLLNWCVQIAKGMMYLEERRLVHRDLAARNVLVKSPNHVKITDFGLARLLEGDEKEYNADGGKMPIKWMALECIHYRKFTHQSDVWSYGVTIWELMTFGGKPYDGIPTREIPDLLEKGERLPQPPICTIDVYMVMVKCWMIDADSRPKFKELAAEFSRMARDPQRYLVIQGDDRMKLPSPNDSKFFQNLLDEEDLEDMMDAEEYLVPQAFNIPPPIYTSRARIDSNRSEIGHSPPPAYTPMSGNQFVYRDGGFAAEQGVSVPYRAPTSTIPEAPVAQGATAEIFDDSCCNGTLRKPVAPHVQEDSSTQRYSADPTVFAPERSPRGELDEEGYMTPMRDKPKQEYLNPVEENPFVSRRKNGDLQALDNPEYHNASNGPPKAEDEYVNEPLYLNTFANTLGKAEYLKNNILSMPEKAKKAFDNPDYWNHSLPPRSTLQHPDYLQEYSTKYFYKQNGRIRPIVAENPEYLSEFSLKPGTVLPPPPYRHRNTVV
UniProt P42679, sequence (whole entry, looked up): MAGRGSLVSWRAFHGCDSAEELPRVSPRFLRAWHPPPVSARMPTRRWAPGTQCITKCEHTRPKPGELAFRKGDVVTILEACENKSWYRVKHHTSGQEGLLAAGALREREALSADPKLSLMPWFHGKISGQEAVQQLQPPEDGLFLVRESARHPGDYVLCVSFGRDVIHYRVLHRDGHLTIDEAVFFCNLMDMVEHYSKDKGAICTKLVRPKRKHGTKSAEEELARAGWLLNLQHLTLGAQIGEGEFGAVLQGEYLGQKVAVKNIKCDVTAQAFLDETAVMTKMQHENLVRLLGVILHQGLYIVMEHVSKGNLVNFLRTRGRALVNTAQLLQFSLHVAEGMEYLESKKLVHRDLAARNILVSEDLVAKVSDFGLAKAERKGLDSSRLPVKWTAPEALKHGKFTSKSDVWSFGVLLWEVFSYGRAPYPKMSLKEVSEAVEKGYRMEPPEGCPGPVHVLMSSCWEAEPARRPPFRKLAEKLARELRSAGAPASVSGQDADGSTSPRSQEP
UniProt Q99759, sequence (whole entry, looked up): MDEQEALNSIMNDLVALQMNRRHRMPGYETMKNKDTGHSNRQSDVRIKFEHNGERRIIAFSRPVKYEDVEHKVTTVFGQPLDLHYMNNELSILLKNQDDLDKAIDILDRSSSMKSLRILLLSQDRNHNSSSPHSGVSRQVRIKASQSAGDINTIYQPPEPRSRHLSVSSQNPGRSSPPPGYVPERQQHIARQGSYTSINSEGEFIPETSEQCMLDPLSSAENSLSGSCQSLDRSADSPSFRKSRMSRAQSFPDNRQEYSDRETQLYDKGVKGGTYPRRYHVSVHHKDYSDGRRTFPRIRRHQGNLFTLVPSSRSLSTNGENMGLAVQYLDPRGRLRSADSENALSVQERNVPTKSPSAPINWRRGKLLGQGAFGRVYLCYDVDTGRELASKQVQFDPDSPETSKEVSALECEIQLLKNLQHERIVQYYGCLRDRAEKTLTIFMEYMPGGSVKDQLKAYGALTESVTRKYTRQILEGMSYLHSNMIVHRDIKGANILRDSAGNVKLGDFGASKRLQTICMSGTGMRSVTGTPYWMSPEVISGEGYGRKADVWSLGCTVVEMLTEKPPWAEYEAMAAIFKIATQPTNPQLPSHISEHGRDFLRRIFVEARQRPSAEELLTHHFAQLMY
UniProt P46734, sequence (whole entry, looked up): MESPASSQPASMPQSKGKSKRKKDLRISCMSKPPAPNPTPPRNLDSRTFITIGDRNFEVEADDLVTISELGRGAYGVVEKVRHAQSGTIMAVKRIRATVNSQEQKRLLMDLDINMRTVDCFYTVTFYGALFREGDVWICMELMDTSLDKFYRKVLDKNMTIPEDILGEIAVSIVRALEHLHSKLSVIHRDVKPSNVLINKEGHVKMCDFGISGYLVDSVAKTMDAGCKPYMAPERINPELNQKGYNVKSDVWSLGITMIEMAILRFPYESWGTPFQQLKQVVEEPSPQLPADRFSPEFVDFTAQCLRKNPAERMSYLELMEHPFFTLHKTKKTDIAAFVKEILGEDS

Study 1
Cell line: mouse MPNST tumor cells
Technique: high-content nuclear imaging
Refers to: cell number
Tested at: 10 µM
Time: 12 h
Notes: mean of 2 replicates
Baseline: plate mean
Direction: higher = more cells
`CO[C@H]1C[C@@H]2CC[C@@H](C)[C@@](O)(O2)C(=O)C(=O)N2CCCC[C@H]2C(=O)O[C@H]([C@H](C)C[C@@H]2CC[C@@H](OCCO)[C@H](OC)C2)CC(=O)[C@H](C)/C=C(\C)[C@@H](O)[C@@H](OC)C(=O)[C@H](C)C[C@H](C)/C=C/C=C/C=C/1C` gave a nuclei count of 3.73 z-score.
For `Cc1cc(-c2nc(C(=O)Nc3cn(C4CCOCC4)nc3C(N)=O)co2)ccn1`, the nuclei count was 5.81 z-score.
With `CN(C)CCOC(=O)COc1ccc(Cl)cc1` the nuclei count was 1.64 z-score.
`Cc1ncc(C[n+]2csc(CCO)c2C)c(N)n1` has a nuclei count of 1.38 z-score.
`CCCC(C(=O)OCCN(CC)CC)(c1ccccc1)c1ccccc1` has a nuclei count of 3.59 z-score.
`CCCN1CCC[C@@H](c2cccc(S(C)(=O)=O)c2)C1` gave a nuclei count of 0.878 z-score.
For `COc1ccc(CN2C(=O)C(=O)c3cc(OC(F)(F)F)ccc32)cc1`, the nuclei count was -4.77 z-score.

Study 2
Organism: Sarcocystis neurona
Read-out: parasite growth
Tested at: 10 µM
Time: 96 h
Notes: first screen
For `CCN1CCC[C@H]1CNC(=O)c1cc(S(N)(=O)=O)ccc1OC`, the inhibition was -16.2%.
With `C[C@H]1COc2c(C3(N)CC3)c(F)cc3c(=O)c(C(=O)O)cn1c23` the inhibition was 2.1%.
For `COc1ccc2c(c1)c(CC(=O)O)c(C)n2C(=O)c1ccc(Cl)cc1`, the inhibition was -18.9%.
`COc1cc(C)nc(-n2nc(C)cc2OC)n1` has an inhibition of 6.7%.
For `C[C@@H]1O[C@@H](OC[C@H]2O[C@@H](Oc3c(-c4ccc(O)c(O)c4)oc4cc(O)cc(O)c4c3=O)[C@H](O)[C@@H](O)[C@@H]2O)[C@H](O)[C@H](O)[C@H]1O`, the inhibition was -1.6%.
For `CC(=O)Nc1nnc(S(N)(=O)=O)s1`, the inhibition was 11.3%.
For `CN1CC(=O)N2[C@H](c3ccc4c(c3)OCO4)c3[nH]c4ccccc4c3C[C@@H]2C1=O`, the inhibition was 33.5%.
The inhibition of `O=S(=O)(O)CCS` is reported as -7.1%.
With `CC[C@H]1OC(=O)[C@H](C)C(=O)[C@H](C)[C@@H](O[C@@H]2O[C@H](C)C[C@H](N(C)C)[C@H]2O)[C@](C)(OC)C[C@@H](C)C(=O)[C@H](C)[C@H]2N(CCCCn3cnc(-c4cccnc4)c3)C(=O)O[C@]12C` the inhibition was 11.9%.

Study 3
SMILES: Cc1sc(C(=O)NC2COC2)cc1-n1cc(NC(=O)Nc2c(F)cccc2Cl)cn1
Read-out: enzyme activity
Tested at: 10 µM
Baseline: untreated control
The remaining activity was 71.4% (Ribosomal protein S6 kinase alpha-3 (RPS6KA3, Homo sapiens, UniProt P51812)).
For cGMP-dependent protein kinase 1, isoform beta (PRKG1, Homo sapiens, UniProt Q13976): remaining activity read 87.3%.
For MAP kinase-interacting serine/threonine-protein kinase 1 (MKNK1, Homo sapiens, UniProt Q9BUB5): remaining activity read 93.2%.
It gave 104% for remaining activity (cAMP-dependent protein kinase catalytic subunit beta (PRKACB, Homo sapiens, UniProt P22694)).
It gave 109% for remaining activity (Mitogen-activated protein kinase kinase kinase 3 (MAP3K3, Homo sapiens, UniProt Q99759)).
It gave 82% for remaining activity (Dual specificity mitogen-activated protein kinase kinase 3 (MAP2K3, Homo sapiens, UniProt P46734)).

Study 4
SMILES: CS(=O)(=O)N1CCCC(NC(=O)[C@H](CCC2CCCCC2)NC(=O)c2ccc(CNC(=O)c3cnc4ccccn34)cc2)C1 (stereo partly shown)
Read-out: cell-free assay
Technique: competition with immobilised ligand
Tested at: 0.1 µM
For Megakaryocyte-associated tyrosine-protein kinase (MATK, Homo sapiens, UniProt P42679): remaining binding read 100%.
Serine/threonine-protein kinase PLK2 (PLK2, Homo sapiens, UniProt Q9NYY3) — remaining binding: 100%.
The remaining binding was 65% (Mitogen-activated protein kinase kinase kinase 9 (MAP3K9, Homo sapiens, UniProt P80192)).
The remaining binding was 88% (Tyrosine-protein kinase ABL1, phosphorylated (ABL1, Homo sapiens, UniProt P00519, Q252H)).
For Phosphatidylinositol 4,5-bisphosphate 3-kinase catalytic subunit alpha isoform (PIK3CA, Homo sapiens, UniProt P42336, Q546K): remaining binding read 90%.
Receptor tyrosine-protein kinase erbB-4 (ERBB4, Homo sapiens, UniProt Q15303) — remaining binding: 95%.
For Receptor-type tyrosine-protein kinase FLT3 (FLT3, Homo sapiens, UniProt P36888, D835Y): remaining binding read 100%.
It gave 97% for remaining binding (Serine/threonine-protein kinase PAK 5 (PAK5, Homo sapiens, UniProt Q9P286)).
Dual serine/threonine and tyrosine protein kinase (DSTYK, Homo sapiens, UniProt Q6XUX3) — remaining binding: 100%.
For Mitogen-activated protein kinase kinase kinase 5 (MAP3K5, Homo sapiens, UniProt Q99683): remaining binding read 100%.
Non-receptor tyrosine-protein kinase TNK1 (TNK1, Homo sapiens, UniProt Q13470) — remaining binding: 100%.
The remaining binding was 100% (Serine/threonine-protein kinase PLK1 (PLK1, Homo sapiens, UniProt P53350)).
The remaining binding was 98% (Phosphatidylinositol 4-kinase beta (PI4KB, Homo sapiens, UniProt Q9UBF8)).
NUAK family SNF1-like kinase 1 (NUAK1, Homo sapiens, UniProt O60285) — remaining binding: 88%.
For Phosphatidylinositol 4-phosphate 3-kinase C2 domain-containing subunit beta (PIK3C2B, Homo sapiens, UniProt O00750): remaining binding read 100%.

Repeated from above (study 3):
For MAP kinase-interacting serine/threonine-protein kinase 1 (MKNK1, Homo sapiens, UniProt Q9BUB5): remaining activity read 93.2%.
For cGMP-dependent protein kinase 1, isoform beta (PRKG1, Homo sapiens, UniProt Q13976): remaining activity read 87.3%.
It gave 82% for remaining activity (Dual specificity mitogen-activated protein kinase kinase 3 (MAP2K3, Homo sapiens, UniProt P46734)).
